Results collected from several papers.
Each line is one published result; not all experiments were run side by side. Numbers after ± are the reported error.
Cell line: Caco-2

CC(C)CCOP(=O)(O)Oc1c2c(c(OP(=O)(O)OCCC(C)C)c3c1C1CC3c3cc4c(cc31)C1CC4c3ccccc31)C1CC2c2cc3c(cc21)C1CC3c2ccccc21  CC50 (CellTiter-Glo; 2 days): 97 µM
CC(C)C[C@H](N)C(=O)N1CCC[C@H]1C(=O)N[C@@H](Cc1ccccc1)C(=O)N[C@@H](C)C(=O)O  viability (MTT; 0.5 and 1 mM, 4 h): > 100%
CCCCCCCCCCCCCCCCOP(=O)(O)Oc1c2c(c(OP(=O)(O)OCCCCCCCCCCCCCCCC)c3c1C1CC3c3cc4c(cc31)C1CC4c3ccccc31)C1CC2c2cc3c(cc21)C1CC3c2ccccc21  CC50 (CellTiter-Glo; 2 days): 244 µM
CN(C)CC1CCCCC1(O)c1cccc(O)c1 (centres unmarked)  permeability decrease (concentration not given, apical-to-basolateral, apical pH 7.4 to 6.8): ~50%
CCCCn1cc(C(=O)O)c(=O)c2cc(F)c3c(nnn3-c3cccc(Cl)c3)c21  IC50 (cell growth, SRB; 72 h): 92.5 ± 7.07 µg/mL
Clc1cc2oc3cc(Cl)c(Cl)c(Cl)c3c2cc1Cl  transport fraction (refers to: basolateral amount; gut-on-a-chip model; 0.2 ng/mL, 24 h, DMSO 1%; relative to: total applied amount): 3.3%
C(#Cc1cncc(OC[C@@H]2CCN2)c1)c1ccccc1  efflux ratio (Caco-2 permeability; 100 µM, 2 h, pH 7.4, with: MK-571 100 µM; relative to: Papp B to A over A to B): ~1
CC[C@H](C)[C@@H]1NC(=O)[C@H](CCCCN)NC(=O)[C@H]([C@@H](C)O)NC(=O)[C@H](Cc2ccccc2)NC(=O)[C@H]([C@@H](C)CC)NC(=O)[C@@H]2CCCN2C(=O)[C@@H](N)CSSC[C@@H](C(=O)NCC(=O)NCC(=O)N[C@@H](CCCNC(=N)N)C(=O)N[C@@H](CCCNC(=N)N)C(=O)N[C@@H](CCCCN)C(=O)N[C@@H](CCCCN)C(=O)O)NC(=O)[C@H]([C@@H](C)O)NC(=O)CNC(=O)[C@H](CCC(N)=O)NC1=O  viability reduction (MTT; up to 25.0 µM, 48 and 72 h): ~25%
CCCCn1cc(C(=O)O)c(=O)c2cc(F)c(Nc3cccc(Cl)c3)c([N+](=O)[O-])c21  IC50 (cell growth or viability, SRB): 269 µM
C[N+](C)(C)CCOP(=O)([O-])Oc1c2c(c(OP(=O)([O-])OCC[N+](C)(C)C)c3c1C1CC3c3cc4c(cc31)C1CC4c3ccccc31)C1CC2c2cc3c(cc21)C1CC3c2ccccc21  CC50 (CellTiter-Glo; 2 days): 296 µM
C#CCCCNCCNc1ccnc2cc(Cl)ccc12  CC50: 27.4 ± 1.2 µM
O=P(O)(OCc1ccccc1)Oc1c2c(c(OP(=O)(O)OCc3ccccc3)c3c1C1CC3c3cc4c(cc31)C1CC4c3ccccc31)C1CC2c2cc3c(cc21)C1CC3c2ccccc21  CC50 (CellTiter-Glo; 2 days): 122 µM
Cc1cc(-c2ccc3ccccc3c2)nnc1NCCN1CCN(C)CC1  recovery (Caco-2 permeability; time not given, mean of both directions): 65%
CCCCn1cc(C(=O)O)c(=O)c2cc(F)c3c(nnn3-c3ccccc3Cl)c21  IC50 (cell growth, SRB; 72 h): 90.2 ± 2.84 µg/mL
CC(=O)N(CCCc1cn(-c2ccc(CN3CCOCC3)cc2)nn1)CCNc1ccnc2cc(Cl)ccc12  CC50: 65.2 ± 10.7 µM
CCCCn1cc(C(=O)O)c(=O)c2cc(F)c(Nc3cccc(Cl)c3)c(N)c21  IC50 (cell growth, SRB; 72 h): 25.7 ± 2.64 µg/mL
CCCCCCOP(=O)(O)Oc1c2c(c(OP(=O)(O)OCCCCCC)c3c1C1CC3c3cc4c(cc31)C1CC4c3ccccc31)C1CC2c2cc3c(cc21)C1CC3c2ccccc21  CC50 (CellTiter-Glo; 2 days): 208 µM
F[P-](F)(F)(F)(F)F.OCP(CO)CO.OCP(CO)CO.OCP(CO)CO.OCP(CO)CO.[Cu+]  sensitivity ratio (cell viability, MTT; 72 h; relative to: cisplatin): ~40 fold
CCCCOP(=O)(O)Oc1c2c(c(OP(=O)(O)OCCCC)c3c1C1CC3c3cc4c(cc31)C1CC4c3ccccc31)C1CC2c2cc3c(cc21)C1CC3c2ccccc21  CC50 (CellTiter-Glo; 2 days): 152 µM
C=CC(=O)N1CCCC(Oc2ccc(Cl)cn2)C1 (centres unmarked)  viability (resazurin; 0.25 to 1 mM): > 85%
Clc1c(Cl)c(Cl)c2c(oc3c(Cl)c(Cl)c(Cl)c(Cl)c32)c1Cl  transport fraction (refers to: basolateral amount; gut-on-a-chip model; 0.2 ng/mL, 24 h, DMSO 1%; relative to: total applied amount): 0.6%
C=CC(=O)N1CCC(c2nc(-c3ccccn3)no2)CC1  viability (resazurin; 0.25 to 1 mM): > 85%
CCCCCOP(=O)(O)Oc1c2c(c(OP(=O)(O)OCCCCC)c3c1C1CC3c3cc4c(cc31)C1CC4c3ccccc31)C1CC2c2cc3c(cc21)C1CC3c2ccccc21  CC50 (CellTiter-Glo; 2 days): 185 µM
CCCCn1cc(C(=O)O)c(=O)c2cc(F)c(Nc3ccccc3Cl)c(N)c21  IC50 (cell growth, SRB; 72 h): 107 ± 5.74 µg/mL
CCCCC[C@H]1C(=O)N(C)[C@H](C)C(=O)N(C)[C@@H](CCCCC)C(=O)N(C)[C@H](C)C(=O)N(C)[C@@H](CCCCC)C(=O)N(C)[C@H](C)C(=O)N(C)[C@@H](CCCCC)C(=O)N(C)[C@H](C)C(=O)N1C  efflux ratio (10 µM; relative to: B-A over A-B): 0.928
CCCCC[C@@H]1OC(=O)[C@@H](C)N(C)C(=O)[C@H](CCCCC)OC(=O)[C@@H](C)N(C)C(=O)[C@H](CCCCC)OC(=O)[C@@H](C)N(C)C(=O)[C@H](CCCCC)OC(=O)[C@@H](C)N(C)C1=O  Papp (10 µM, 2 h, pH 7.4): 1 to 10 ×10⁻⁶ cm/s
CCCCn1cc(C(=O)O)c(=O)c2cc(F)c(Nc3ccccc3Cl)c([N+](=O)[O-])c21  IC50 (cell growth or viability, SRB): 310 µM
O=P(O)(OCc1ccncc1)Oc1c2c(c(OP(=O)(O)OCc3ccncc3)c3c1C1CC3c3cc4c(cc31)C1CC4c3ccccc31)C1CC2c2cc3c(cc21)C1CC3c2ccccc21  CC50 (CellTiter-Glo; 2 days): 292 µM
Nc1nc(Nc2ccc(Cl)cc2)nn1S(=O)(=O)c1ccc2ccccc2c1  Papp B-A (10 µM, 90 (unit not given), pH 7.4): 0.122 ×10⁻⁶ cm/s

Excerpt of the above:
CC(=O)N(CCCc1cn(-c2ccc(CN3CCOCC3)cc2)nn1)CCNc1ccnc2cc(Cl)ccc12  CC50: 65.2 ± 10.7 µM
CCCCn1cc(C(=O)O)c(=O)c2cc(F)c3c(nnn3-c3cccc(Cl)c3)c21  IC50 (cell growth, SRB; 72 h): 92.5 ± 7.07 µg/mL
